Assay results gathered from unrelated publications.
Numbered parts are unrelated; each lists some results of a single study. Substitutions count along the parent as printed.

Series 1
Target: ABI1, truncated, D143A, DHFR fusion (Arabidopsis thaliana)
Technique: DHFR PCA, deep sequencing
Medium: yeast
Setting: methotrexate growth selection, single substitutions
With: (+)-ABA 2500 µM
Reference: wild-type fitted maximum
Direction: higher = stronger binding
Parent: PYL1, truncated, DHFR fusion (Arabidopsis thaliana); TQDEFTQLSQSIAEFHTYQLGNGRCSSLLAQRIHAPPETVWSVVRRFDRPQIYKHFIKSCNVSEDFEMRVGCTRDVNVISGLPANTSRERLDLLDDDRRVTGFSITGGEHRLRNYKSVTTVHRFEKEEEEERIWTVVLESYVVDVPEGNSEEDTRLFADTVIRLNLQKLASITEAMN
Substitution | relative binding score
T73A | 96.8%
N165H | 83.4%
V78G | 42.7%
L169R | 0.968%
L164H | 95.7%
V142M | 93.5%
Q31H | 96.4%
A158F | 73.7%
V78E | 13.1%
K54V | -7.8%
I33K | -30.7%
G102I | 76.5%
K58A | 96.9%
A158W | -3.86%
F56C | 89.9%
Q2C | 101%
Y115F | 104%
L82V | 93.7%
D95P | -6.18%
Q19K | 106%
P50W | -10.7%
A158N | 90.7%
F5C | 107%
V118K | 106%

Series 2
Target: ATF3, bZIP domain (human)
Technique: DHFR protein complementation
Medium: yeast
Setting: single substitutions, most at no-binding floor
Reference: wild-type JUN-FOS pair
Direction: higher = stronger binding
Parent: JUN, bZIP domain (human); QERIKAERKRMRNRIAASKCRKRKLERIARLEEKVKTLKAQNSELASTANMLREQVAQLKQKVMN; partner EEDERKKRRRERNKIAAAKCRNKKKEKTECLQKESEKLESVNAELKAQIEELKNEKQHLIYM
Substitution | binding fitness [natural log]
K34L | -0.283
K36E | -0.0964
A40C | -0.298
Q41P | -1.48
V35M | -0.306
E54T | -0.22
A46P | -1.06
R30L | 0.0116
E32M | -0.371
S47F | -0.0968
L52W | -1.08
M51T | -0.0747
Q55W | -0.962
L52I | -0.488
A29P | -0.437
A29K | -0.253
R30D | -0.059
L31C | -0.677
K34V | -0.346
R30A | 0.107

Series 3
Target: CCND3, cyclin fold, Cln2 fusion (human)
Technique: yeast growth competition, sequencing
Medium: yeast
Setting: weak parent motif
Reference: not given
Direction: higher = stronger binding
Parent: E2F1 docking peptide (human); PPVKRRLDLETDH
Substitution | normalised enrichment score
V3N | 0.159
T11K | 0.151
T11Q | 0.0407
D12A | 0.139
H13C | 0.125
D12W | 0.124
R6I | 0.113
R5D | 0.0958
T11E | 0.165
K4R | 0.0593
T11S | 0.157
R5Q | 0.126
R6F | 0.162
D8C | 0.0458
P2T | 0.181
H13K | 0.221
E10V | 0.143
L7P | 0.174
E10F | 0.118
V3Y | 0.153
R6M | 0.124
H13F | 0.144
R5F | 0.0526

Series 4
Target: Centromere-binding protein 1, full length, His-tagged (CBF1, Saccharomyces cerevisiae, UniProt P17106, residues 1-351)
UniProt P17106, sequence (whole entry, looked up): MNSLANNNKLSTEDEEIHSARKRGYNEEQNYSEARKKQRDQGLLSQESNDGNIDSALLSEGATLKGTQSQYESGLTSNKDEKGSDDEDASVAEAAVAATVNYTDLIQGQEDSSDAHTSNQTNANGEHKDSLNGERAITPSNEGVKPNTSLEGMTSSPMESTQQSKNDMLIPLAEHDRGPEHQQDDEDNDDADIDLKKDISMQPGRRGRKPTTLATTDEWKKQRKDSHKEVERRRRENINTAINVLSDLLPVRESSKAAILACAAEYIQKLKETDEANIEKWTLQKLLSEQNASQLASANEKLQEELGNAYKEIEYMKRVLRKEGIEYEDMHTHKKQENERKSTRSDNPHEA
Technique: competition protein-binding microarray
Molecule type: double-stranded DNA, one strand shown
Medium: in vitro
Concentration: 2 µM
Setting: whole 60-bp probe, lowest competitor level
With: Pho4 competitor, 0.05 µM
Direction: higher = stronger binding
All sequences stand within: … GTCTTGATTCGCTTGACGCTGCTG
Oligonucleotide | fluorescence intensity
CTTCTGTAAATTTGATCAGTGGGTGGACGCGCCCCG | 76.4 a.u.
CGCAGCGGCTGGCAGCATGTGCAGGATAATGATAAG | 157 a.u.
CTTGCAAACAGCGGCCACGTCGCATCAAGTGGTGGC | 53.9 a.u.
CGCATATTTTACTGTCATGCTTCTGTCAAGAAAAAG | 240 a.u.
AAAGCGGTAATTTTTCACGTGCATTCACATATCTAT | 1100 a.u.
CTAACGAAGGTTTGGAGAGTGGGTGACAAGCCAAGT | 56.9 a.u.
CGTCCTAGTGATTGCGGGGTGGGTGCCATGAGGAAG | 101 a.u.
CTAACGAAGGTTTGTTATGTGGGTGACAAGCCAAGT | 73.7 a.u.
TTCGCTACAAAATAATGCGTGATGGTTTCAGTGAAG | 102 a.u.
TCATGCATCCATTGCCTCGTGTAACTGAAATCAAAG | 117 a.u.
TGAATACGTCTCTTGCTCGTGTGTTTTGCCATTATG | 84.2 a.u.
TCAACACTTCACCAACACGTGTCGGGGACCGCTTCA | 713 a.u.
CGGGGTTAAGTTTGTTCTGTGGGTGGCTTGCAGCAG | 65.6 a.u.
TGCGCAACAACTTGATCCGTGGGTGTATGTCTAGAA | 65.4 a.u.
CTTTCCCGATCTTGTCACCGTACTTTAGCACATTTG | 70.3 a.u.
AAGATTCCGGAGTCCCTCGTGAGGAAATTTTTATTA | 87.8 a.u.
AAATTACTAAGTTGTCACAGAACTTACCCCGTATGA | 108 a.u.
GTCTTGTCTCATTGTTAAGTGGGTGTCCCCACTTCA | 62.4 a.u.
GCGCGATAGCGGCAGCGCGTGGCCGGGCAAGGGTCT | 61 a.u.
CTAACGAAGGTTTGTCACAGGACTTACAAGCCAAGT | 90.7 a.u.
CAATCTTGGCGTTCACACGTGGGTATAAAAAGGCAA | 999 a.u.
GTACGAAGCAGGCTGCACATGTGTGGGTTTACCTTC | 113 a.u.
GAAACAGCCGCTTGCCACGTTGCTCGATAAGTTCTT | 70.2 a.u.
CGGGGTTAAGTTTGAACTGTGGGTGGCTTGCAGCAG | 68.8 a.u.
TTTAATCGCTCTACCCACGTTTTTTTATCCAGTGCT | 130 a.u.

Series 5
Partner: ARF10 575-693 (Arabidopsis thaliana, UniProt Q9SKN5)
Technique: two-hybrid
Reference: out of 4 tests
Direction: higher = firmer interaction
B1: IAA32 (Arabidopsis thaliana, UniProt Q8RYC6); chain MDPNTPADFFKGSSKFHTYYSQTKKGGGVIDLGLSLRTIQHETYLPPARMIGLDGYGELIDWSQPSYNSITQLKSEDTGHQRLAQGYYNNEGESRGKYAYVKVNLDGLVVGRKVCLVDQGAYATLALQLNDMFGMQTVSGLRLFQTESEFSLVYRDREGIWRNVGDVPWKEFVESVDRMRIARRNDALLPF
B2: ARF2 727-859 (Arabidopsis thaliana, UniProt Q94JM3); chain TKTNSSRSCTKVHKQGIALGRSVDLSKFQNYEELVAELDRLFEFNGELMAPKKDWLIVYTDEENDMMLVGDDPWQEFCCMVRKIFIYTKEEVRKMNPGTLSCRSEEEAVVGEGSDAKDAKSASNPSLSSAGNS
B3: IAA33 (Arabidopsis thaliana, UniProt Q9FKM7); chain MNSFEPQSQDSLQRRFHQDNSTTQQPRDTTTPFIPKPASKNHNNSNSSSGAAGRSFQGFGLNVEDDLVSSVVPPVTVVLEGRSICQRISLDKHGSYQSLASALRQMFVDGADSTDDLDLSNAIPGHLIAYEDMENDLLLAGDLTWKDFVRVAKRIRILPVKGNTRQVKRNE
B4: IAA19 (Arabidopsis thaliana, UniProt O24409); chain MEKEGLGLEITELRLGLPGRDVAEKMMKKRAFTEMNMTSSGSNSDQCESGVVSSGGDAEKVNDSPAAKSQVVGWPPVCSYRKKNSCKEASTTKVGLGYVKVSMDGVPYLRKMDLGSSQGYDDLAFALDKLFGFRGIGVALKDGDNCEYVTIYEDKDGDWMLAGDVPWGMFLESCKRLRIMKRSDATGFGLQPRGVDE
B5: IAA29 (Arabidopsis thaliana, UniProt Q93WC4); chain MELDLGLSLSPHKSSKLGFNFDLNKHCAIEGAASCLGTEKLRFEATFGLGNVEENCYMPKQRLFALNGQPNEEDEDPLESESSIVYDDEEENSEVVGWPPVKTCMIKYGSYHHRHIRNHHHCPYHHRGRRITAMNNNISNPTTATVGSSSSSSISSRSSMYVKVKMDGVAIARKVDIKLFNSYESLTNSLITMFTEYEDCDREDTNYTFTFQGKEGDWLLRGDVTWKIFAESVHRISIIRDRPCAYTRCLF
B6: ARF7 1030-1164 (Arabidopsis thaliana, UniProt P93022); chain PAQTQRMRTYTKVQKRGSVGRSIDVNRYRGYDELRHDLARMFGIEGQLEDPQTSDWKLVYVDHENDILLVGDDPWEEFVNCVQSIKILSSAEVQQMSLDGNFAGVPVTNQACSGGDSGNAWRGHYDDNSATSFNR
Construct (chain): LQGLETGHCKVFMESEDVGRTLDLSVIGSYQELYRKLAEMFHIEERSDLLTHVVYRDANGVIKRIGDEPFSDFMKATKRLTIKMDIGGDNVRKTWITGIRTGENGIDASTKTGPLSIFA
Molecule | positive tests
B1 (IAA32) | 2
B2 (ARF2 727-859) | 0
B3 (IAA33) | 4
B4 (IAA19) | 0
B5 (IAA29) | 0
B6 (ARF7 1030-1164) | 1
